Experimental data gathered from unrelated publications.
Each numbered part is a random draw from the data of one study; scales do not carry over between parts.
Sequence of UniProt Q8IW41 (whole entry, looked up): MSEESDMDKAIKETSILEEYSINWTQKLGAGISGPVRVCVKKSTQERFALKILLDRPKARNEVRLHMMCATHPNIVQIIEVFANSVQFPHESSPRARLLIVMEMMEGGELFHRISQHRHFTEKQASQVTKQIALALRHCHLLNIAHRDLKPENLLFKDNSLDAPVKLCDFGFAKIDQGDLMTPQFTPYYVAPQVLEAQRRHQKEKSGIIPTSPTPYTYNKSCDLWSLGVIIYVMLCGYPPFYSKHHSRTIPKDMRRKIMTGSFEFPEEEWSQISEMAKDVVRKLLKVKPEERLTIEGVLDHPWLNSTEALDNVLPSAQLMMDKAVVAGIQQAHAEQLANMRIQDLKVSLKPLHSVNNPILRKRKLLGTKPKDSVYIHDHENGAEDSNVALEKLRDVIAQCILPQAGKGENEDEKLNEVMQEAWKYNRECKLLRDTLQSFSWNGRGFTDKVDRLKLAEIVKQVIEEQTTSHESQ
Sequence of UniProt P57059 (whole entry, looked up): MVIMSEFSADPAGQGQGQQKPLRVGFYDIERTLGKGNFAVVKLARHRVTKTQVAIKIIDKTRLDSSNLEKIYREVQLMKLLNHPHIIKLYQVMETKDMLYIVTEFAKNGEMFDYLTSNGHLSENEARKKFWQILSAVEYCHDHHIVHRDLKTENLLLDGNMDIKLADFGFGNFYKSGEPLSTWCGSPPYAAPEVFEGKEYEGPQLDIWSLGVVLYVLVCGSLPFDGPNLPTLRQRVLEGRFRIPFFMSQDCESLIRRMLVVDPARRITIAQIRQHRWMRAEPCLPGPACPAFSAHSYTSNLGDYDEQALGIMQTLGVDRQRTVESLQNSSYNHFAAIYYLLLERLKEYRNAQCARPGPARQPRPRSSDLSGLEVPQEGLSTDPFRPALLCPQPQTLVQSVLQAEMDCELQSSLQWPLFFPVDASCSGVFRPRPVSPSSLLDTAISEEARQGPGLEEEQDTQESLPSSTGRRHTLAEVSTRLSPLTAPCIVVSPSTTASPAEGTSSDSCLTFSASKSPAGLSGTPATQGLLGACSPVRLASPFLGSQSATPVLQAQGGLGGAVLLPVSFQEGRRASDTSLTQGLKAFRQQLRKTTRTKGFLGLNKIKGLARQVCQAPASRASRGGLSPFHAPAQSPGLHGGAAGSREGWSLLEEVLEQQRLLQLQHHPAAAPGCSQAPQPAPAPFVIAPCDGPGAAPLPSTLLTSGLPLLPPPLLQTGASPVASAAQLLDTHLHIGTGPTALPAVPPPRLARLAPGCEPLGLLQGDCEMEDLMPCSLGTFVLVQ
Sequence of UniProt Q12866 (whole entry, looked up): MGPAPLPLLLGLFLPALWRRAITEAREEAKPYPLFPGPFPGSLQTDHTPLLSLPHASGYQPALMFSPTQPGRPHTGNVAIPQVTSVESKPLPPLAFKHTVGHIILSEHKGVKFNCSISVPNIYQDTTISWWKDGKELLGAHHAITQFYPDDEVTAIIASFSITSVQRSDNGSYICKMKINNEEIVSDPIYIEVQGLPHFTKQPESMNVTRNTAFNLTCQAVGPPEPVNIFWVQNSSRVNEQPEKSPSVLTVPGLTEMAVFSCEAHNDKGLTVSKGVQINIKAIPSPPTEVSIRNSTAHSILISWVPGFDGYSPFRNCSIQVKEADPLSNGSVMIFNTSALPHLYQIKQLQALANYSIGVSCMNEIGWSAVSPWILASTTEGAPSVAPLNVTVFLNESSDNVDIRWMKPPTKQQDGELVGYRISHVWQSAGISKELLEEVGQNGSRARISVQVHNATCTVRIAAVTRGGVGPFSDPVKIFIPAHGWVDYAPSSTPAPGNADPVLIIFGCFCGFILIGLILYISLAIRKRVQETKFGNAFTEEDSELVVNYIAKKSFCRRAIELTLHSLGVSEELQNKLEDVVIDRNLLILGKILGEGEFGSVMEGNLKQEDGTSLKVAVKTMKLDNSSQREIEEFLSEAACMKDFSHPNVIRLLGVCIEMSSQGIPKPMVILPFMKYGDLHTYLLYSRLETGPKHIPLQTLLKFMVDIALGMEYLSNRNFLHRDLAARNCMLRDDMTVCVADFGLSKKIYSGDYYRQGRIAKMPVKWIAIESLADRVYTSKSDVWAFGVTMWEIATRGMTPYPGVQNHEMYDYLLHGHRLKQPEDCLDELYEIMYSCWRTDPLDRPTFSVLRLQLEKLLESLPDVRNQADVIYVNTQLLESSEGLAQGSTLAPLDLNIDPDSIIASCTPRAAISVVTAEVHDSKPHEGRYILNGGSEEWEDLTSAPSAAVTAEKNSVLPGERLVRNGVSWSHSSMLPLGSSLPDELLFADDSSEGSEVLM
Sequence of UniProt P53667 (whole entry, looked up): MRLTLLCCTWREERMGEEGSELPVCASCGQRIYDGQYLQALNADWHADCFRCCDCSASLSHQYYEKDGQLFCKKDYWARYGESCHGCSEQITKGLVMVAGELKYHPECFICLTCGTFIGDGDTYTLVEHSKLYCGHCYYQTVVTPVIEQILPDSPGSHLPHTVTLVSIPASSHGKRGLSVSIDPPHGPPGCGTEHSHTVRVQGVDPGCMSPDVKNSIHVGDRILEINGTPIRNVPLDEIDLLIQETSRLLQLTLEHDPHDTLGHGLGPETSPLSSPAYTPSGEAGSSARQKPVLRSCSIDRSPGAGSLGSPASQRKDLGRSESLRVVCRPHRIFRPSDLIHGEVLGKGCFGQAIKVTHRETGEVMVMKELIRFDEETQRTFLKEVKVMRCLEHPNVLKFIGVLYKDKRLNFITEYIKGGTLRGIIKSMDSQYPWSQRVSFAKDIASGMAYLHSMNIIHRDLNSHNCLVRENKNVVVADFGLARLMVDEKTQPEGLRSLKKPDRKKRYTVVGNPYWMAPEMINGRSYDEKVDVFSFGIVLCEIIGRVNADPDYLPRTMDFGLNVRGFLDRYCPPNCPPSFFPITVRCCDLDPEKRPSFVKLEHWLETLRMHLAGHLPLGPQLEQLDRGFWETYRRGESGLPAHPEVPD
Sequence of UniProt Q16513 (whole entry, looked up): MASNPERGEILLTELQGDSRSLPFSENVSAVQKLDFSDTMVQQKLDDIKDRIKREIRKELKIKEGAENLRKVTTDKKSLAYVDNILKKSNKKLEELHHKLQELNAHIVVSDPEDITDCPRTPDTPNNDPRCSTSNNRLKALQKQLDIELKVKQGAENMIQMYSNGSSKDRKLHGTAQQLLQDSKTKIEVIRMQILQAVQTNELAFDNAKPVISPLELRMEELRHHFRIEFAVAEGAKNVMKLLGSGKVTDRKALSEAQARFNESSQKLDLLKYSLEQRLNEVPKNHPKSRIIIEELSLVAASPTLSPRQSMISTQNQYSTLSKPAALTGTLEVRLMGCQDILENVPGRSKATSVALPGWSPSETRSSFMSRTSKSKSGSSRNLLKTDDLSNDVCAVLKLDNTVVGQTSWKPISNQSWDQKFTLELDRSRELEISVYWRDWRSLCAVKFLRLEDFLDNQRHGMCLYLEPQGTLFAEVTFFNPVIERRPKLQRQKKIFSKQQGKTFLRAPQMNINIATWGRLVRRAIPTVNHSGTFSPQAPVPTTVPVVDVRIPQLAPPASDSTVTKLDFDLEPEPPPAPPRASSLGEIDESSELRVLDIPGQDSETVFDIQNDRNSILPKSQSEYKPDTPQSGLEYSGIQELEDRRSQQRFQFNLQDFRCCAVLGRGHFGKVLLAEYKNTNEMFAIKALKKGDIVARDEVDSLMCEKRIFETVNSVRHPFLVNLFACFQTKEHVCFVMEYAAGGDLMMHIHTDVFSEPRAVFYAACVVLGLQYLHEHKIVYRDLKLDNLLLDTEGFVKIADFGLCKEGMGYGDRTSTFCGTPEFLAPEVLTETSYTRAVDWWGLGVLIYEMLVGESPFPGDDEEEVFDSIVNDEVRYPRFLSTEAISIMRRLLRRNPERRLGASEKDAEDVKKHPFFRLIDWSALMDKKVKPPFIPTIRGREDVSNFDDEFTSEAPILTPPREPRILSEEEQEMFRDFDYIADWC
Sequence of UniProt O00506 (whole entry, looked up): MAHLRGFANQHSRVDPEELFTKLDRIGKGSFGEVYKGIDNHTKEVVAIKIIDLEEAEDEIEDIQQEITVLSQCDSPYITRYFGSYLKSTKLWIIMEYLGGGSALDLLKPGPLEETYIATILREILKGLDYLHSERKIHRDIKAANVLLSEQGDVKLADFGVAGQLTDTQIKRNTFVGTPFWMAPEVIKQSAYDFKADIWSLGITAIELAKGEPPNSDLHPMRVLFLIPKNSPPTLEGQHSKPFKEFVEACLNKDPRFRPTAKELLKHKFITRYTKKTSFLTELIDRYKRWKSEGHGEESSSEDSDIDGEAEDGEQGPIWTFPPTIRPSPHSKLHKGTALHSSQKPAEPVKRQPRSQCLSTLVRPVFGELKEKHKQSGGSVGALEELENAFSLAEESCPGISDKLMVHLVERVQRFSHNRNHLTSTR

Sample 1 — tested at: 1 µM
SMILES: Cc1c(C(=O)O)cc(-c2ccc(C3CCNCC3)cc2)c2ccc(-c3ccc(C(F)(F)F)cc3)cc12
target | test | remaining binding [%]
EPHA1 (Homo sapiens, UniProt P21709) | cell-free assay, competition with immobilised ligand | 83
CAMK1 (Homo sapiens, UniProt Q14012) | cell-free assay, competition with immobilised ligand | 100
STK25 (Homo sapiens, UniProt O00506) | binding, competition with immobilised ligand | 100
PKN2 (Homo sapiens, UniProt Q16513) | binding, competition with immobilised ligand | 100
PKMYT1 (Homo sapiens, UniProt Q99640) | binding, competition with immobilised ligand | 100
KDR (Homo sapiens, UniProt P35968) | cell-free assay, competition with immobilised ligand | 100
PIP4K2B (Homo sapiens, UniProt P78356) | cell-free assay, competition with immobilised ligand | 86
MAP3K1 (Homo sapiens, UniProt Q13233) | binding, competition with immobilised ligand | 100
FLT3 (Homo sapiens, UniProt P36888, D835V) | binding, competition with immobilised ligand | 100
LIM domain kinase 1 (LIMK1, Homo sapiens, UniProt P53667) | binding, competition with immobilised ligand | 100
ERBB2 (Homo sapiens, UniProt P04626) | binding, competition with immobilised ligand | 100
KIT (Homo sapiens, UniProt P10721) | binding, competition with immobilised ligand | 100
LTK (Homo sapiens, UniProt P29376) | cell-free assay, competition with immobilised ligand | 100
SIK1 (Homo sapiens, UniProt P57059) | competition binding | 94
PDGFRB (Homo sapiens, UniProt P09619) | cell-free assay, competition with immobilised ligand | 100
MERTK (Homo sapiens, UniProt Q12866) | binding, competition with immobilised ligand | 91
Myosin-IIIa (MYO3A, Homo sapiens, UniProt Q8NEV4) | binding, competition with immobilised ligand | 100
MAPKAPK5 (Homo sapiens, UniProt Q8IW41) | binding, competition with immobilised ligand | 100
ACVR2A (Homo sapiens, UniProt P27037) | cell-free assay, competition with immobilised ligand | 87

Sample 2 — read-out: enzyme activity; mode: inhibitor; tested at: 0.5 µM; reference: control
Target: MAP kinase-interacting serine/threonine-protein kinase 1 (MKNK1, Homo sapiens, UniProt Q9BUB5)
Sequence of UniProt Q9BUB5 (whole entry, looked up): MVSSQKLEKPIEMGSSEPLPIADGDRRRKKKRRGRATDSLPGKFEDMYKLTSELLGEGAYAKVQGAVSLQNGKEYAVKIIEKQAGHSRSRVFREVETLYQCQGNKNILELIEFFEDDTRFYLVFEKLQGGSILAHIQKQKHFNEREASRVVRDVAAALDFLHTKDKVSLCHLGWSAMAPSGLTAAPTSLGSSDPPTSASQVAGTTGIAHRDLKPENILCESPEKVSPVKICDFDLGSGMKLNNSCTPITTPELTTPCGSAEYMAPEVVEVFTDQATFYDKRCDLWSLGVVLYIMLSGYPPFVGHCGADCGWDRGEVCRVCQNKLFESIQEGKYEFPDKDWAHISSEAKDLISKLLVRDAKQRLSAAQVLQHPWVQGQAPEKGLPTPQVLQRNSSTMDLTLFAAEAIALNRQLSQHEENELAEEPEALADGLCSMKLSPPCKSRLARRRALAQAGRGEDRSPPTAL
Structure (SMILES) | remaining activity [%]
C[C@@H](N)[C@H]1CC[C@H](C(=O)Nc2ccncc2)CC1 | 95
CC(C)N(CCC(=O)c1ccc2ccccc2c1)Cc1ccccc1 | 105
N#C/C(=C(/N)SC1C=CC=CC1)c1cccc(C(O)c2ccncc2)c1 (stereo not shown) | 109
CCN(CC)CCCCN1c2ccccc2Oc2ccc(Cl)cc21 | 95.6
O=Nc1c(-c2c(O)[nH]c3ccccc23)[nH]c2ccccc12 | 99.6
COc1cc2c(Nc3ccc(Br)cc3F)ncnc2cc1OCC1CCN(C)CC1 | 49.3
CCCCc1c(-c2ccc(O)cc2)[nH]c2nccnc12 | 94.5
O=C(c1ccccc1)c1ccc(N2CCOCC2)cc1O | 103

Sample 3 — host: human; medium: microsomes or S9; tested at: 2 µM; time: 0.5 h
SMILES | remaining compound [%]
N#Cc1ccnc(-n2cnc(Br)n2)c1 | 67.3
CC1CCC(NC(=O)c2ccc(CN3C(=O)NC4(CCS(=O)(=O)CC4)C3=O)cc2)CC1 (stereo not shown) | 72.9
COc1ccc(CCc2n[nH]c(NC(=O)Cn3cc(OC)c(=O)cc3C)n2)cc1 | > 100
Cc1ccc(CNC(=O)N2Cc3c(sc4c3CCCC4)-n3cccc3C2C(C)C)cc1 (stereo not shown) | 1.3
COc1c(F)ccc(-c2cn([C@@H](CC(C)C)C(N)=O)nn2)c1F | 38.8
CC(C)CCN(C)c1ccc(C=Nn2cnnc2)cc1 | 80

Sample 4 — read-out: AlphaScreen signal; technique: AlphaScreen counter screen; medium: His6 peptide without bromodomain; tested at: 50 µM; notes: assay interference check
SMILES | inhibition
N#CC(=Cc1ccncc1)c1nc(-c2ccccc2)cs1 | 16.8%
COc1ccc(-c2nnc3ccc(SCC(=O)Nc4cc(C)on4)nn23)cc1OC | 11.2%
CCN(CC)CCNC(=O)c1c(C)[nH]c(/C=C2\C(=O)Nc3ccc(F)cc32)c1C | 67.3%
COc1cc2ncnc(Nc3ccc(NC(=O)c4ccccc4)cc3)c2cc1OC | 9.5%
CN1CCC(CNc2ccc3ncc(-c4cccc(OC(F)(F)F)c4)n3n2)CC1 | 31.4%
Cc1cc(Nc2cc(CN3CCOCC3)c3nc(C)c(Cc4ccc(Cl)cc4F)n3n2)n[nH]1 | 34.4%
N#CC(=Cc1ccc(F)cc1)c1nc2ccccc2s1 | 11.1%

Excerpt of the above (sample 3):
SMILES | remaining compound [%]
COc1ccc(CCc2n[nH]c(NC(=O)Cn3cc(OC)c(=O)cc3C)n2)cc1 | > 100
Cc1ccc(CNC(=O)N2Cc3c(sc4c3CCCC4)-n3cccc3C2C(C)C)cc1 (stereo not shown) | 1.3
N#Cc1ccnc(-n2cnc(Br)n2)c1 | 67.3
